Measured values gathered from unrelated publications.
Lines come from different studies, so protocols differ.

Cc1cc(C)c(CNC(=O)c2cc(Cl)c3c(c2C)O[C@@](C)([C@H]2CC[C@H](N(C)C)CC2)O3)c(=O)[nH]1  half-life unbound drug (human, plasma; oral, 200 mg, cycle 1 day 1): 8.81 h
Cc1cc(Nc2ncnc3ccc(NC4=NC(C)(CO)CO4)cc23)ccc1Oc1ccn2ncnc2c1 (stereo not shown)  half-life (arithmetic mean) (human, plasma; oral, 300 mg tucatinib single dose, day 1, tucatinib alone): 10.3 h
O=C(O)CCC(=O)O.[2H]C([2H])([2H])Oc1cc(C)c2[nH]ccc2c1CN1CC[C@@H](C2CC2)C[C@H]1c1ccc(C(=O)O)cc1  half-life (LC-MS/MS, mean; human, plasma; 100 mg, single dose, fasting): 23.6 h
CCNCc1cc(Nc2ccnc3cc(Cl)ccc23)ccc1O  half-life ratio (humans, both sexes, plasma; oral, outlier included; reference: fixed over non-fixed combination): 0.84
Cc1nc(-c2ccc(OCC(C)C)c(C#N)c2)sc1C(=O)O  half-life (human, plasma; oral, 40 mg once daily, added: verinurad 10 mg): 6.15 h
COc1ncc(-c2nc3c(n2C(C)C)[C@H](c2ccc(Cl)cc2)N(c2cc(Cl)cn(C)c2=O)C3=O)c(OC)n1  half-life (LC-MS/MS, noncompartmental; human, plasma; oral, 25 mg, low-dose, median): 12.4 h
O=C(c1cc(Cc2n[nH]c(=O)c3ccccc23)ccc1F)N1CCN(C(=O)C2CC2)CC1  half-life decrease (human; oral, added: carboplatin before): 28%
COc1cc(C(=O)NC2CCN(C)CC2)c(F)cc1Nc1ncc(C(F)(F)F)c(Oc2cccc3c2C(=O)N(C)C3)n1  half-life steady state (human, Japanese, plasma; oral, 200 mg once daily multiple dose, geometric mean): 22 h
CC(C)(Sc1ccncc1-c1ccc(C#N)c2ccccc12)C(=O)O  half-life (human, plasma; oral, 10 mg once daily, added: febuxostat 20 mg): 14.6 h
N#Cc1ccc2c(c1)[C@H]1CCCN(C(=O)c3ccc4[nH]cnc4c3)[C@H]1C2  half-life at steady state (human, plasma; oral, 240 mg once daily): 130 h
COC(=O)N[C@@H](C)CNc1nccc(-c2cn(C(C)C)nc2-c2cc(Cl)cc(NS(C)(=O)=O)c2F)n1  half-life geometric mean (humans, plasma; oral, day 14, steady state, added: binimetinib): 3.58 h
CO[C@H]1C[C@@H]2CC[C@@H](C)[C@@](O)(O2)C(=O)C(=O)N2CCCC[C@H]2C(=O)O[C@H]([C@H](C)C[C@@H]2CC[C@@H](OC(=O)NCCOCCOCCOCCOCCOCCOCCOCCOCCC(=O)N3CCc4cc(Cn5nc(-c6ccc7oc(N)nc7c6)c6c(N)ncnc65)ccc4C3)[C@H](OC)C2)C[C@@H](O)[C@H](C)/C=C(\C)[C@@H](O)[C@@H](OC)C(=O)[C@H](C)C[C@H](C)/C=C/C=C/C=C/1C  half-life (human, plasma; intravenous, 6 mg, cycle 1 day 15, arithmetic mean): 4 h
C=CC(=O)N(C)CCOc1c(N)ncnc1-c1cc(F)cc(NC(=O)c2ccc(C3CC3)cc2F)c1C  half-life (human, whole blood; oral, 60 mg, single ascending dose, median): 1.03 h

Some of these lines once more:
CO[C@H]1C[C@@H]2CC[C@@H](C)[C@@](O)(O2)C(=O)C(=O)N2CCCC[C@H]2C(=O)O[C@H]([C@H](C)C[C@@H]2CC[C@@H](OC(=O)NCCOCCOCCOCCOCCOCCOCCOCCOCCC(=O)N3CCc4cc(Cn5nc(-c6ccc7oc(N)nc7c6)c6c(N)ncnc65)ccc4C3)[C@H](OC)C2)C[C@@H](O)[C@H](C)/C=C(\C)[C@@H](O)[C@@H](OC)C(=O)[C@H](C)C[C@H](C)/C=C/C=C/C=C/1C  half-life (human, plasma; intravenous, 6 mg, cycle 1 day 15, arithmetic mean): 4 h
C=CC(=O)N(C)CCOc1c(N)ncnc1-c1cc(F)cc(NC(=O)c2ccc(C3CC3)cc2F)c1C  half-life (human, whole blood; oral, 60 mg, single ascending dose, median): 1.03 h
